# Results pooled from the literature.
# Lines come from different studies, so protocols differ. ± gives the spread as reported.
# Sequence of UniProt P41252 (whole entry, looked up): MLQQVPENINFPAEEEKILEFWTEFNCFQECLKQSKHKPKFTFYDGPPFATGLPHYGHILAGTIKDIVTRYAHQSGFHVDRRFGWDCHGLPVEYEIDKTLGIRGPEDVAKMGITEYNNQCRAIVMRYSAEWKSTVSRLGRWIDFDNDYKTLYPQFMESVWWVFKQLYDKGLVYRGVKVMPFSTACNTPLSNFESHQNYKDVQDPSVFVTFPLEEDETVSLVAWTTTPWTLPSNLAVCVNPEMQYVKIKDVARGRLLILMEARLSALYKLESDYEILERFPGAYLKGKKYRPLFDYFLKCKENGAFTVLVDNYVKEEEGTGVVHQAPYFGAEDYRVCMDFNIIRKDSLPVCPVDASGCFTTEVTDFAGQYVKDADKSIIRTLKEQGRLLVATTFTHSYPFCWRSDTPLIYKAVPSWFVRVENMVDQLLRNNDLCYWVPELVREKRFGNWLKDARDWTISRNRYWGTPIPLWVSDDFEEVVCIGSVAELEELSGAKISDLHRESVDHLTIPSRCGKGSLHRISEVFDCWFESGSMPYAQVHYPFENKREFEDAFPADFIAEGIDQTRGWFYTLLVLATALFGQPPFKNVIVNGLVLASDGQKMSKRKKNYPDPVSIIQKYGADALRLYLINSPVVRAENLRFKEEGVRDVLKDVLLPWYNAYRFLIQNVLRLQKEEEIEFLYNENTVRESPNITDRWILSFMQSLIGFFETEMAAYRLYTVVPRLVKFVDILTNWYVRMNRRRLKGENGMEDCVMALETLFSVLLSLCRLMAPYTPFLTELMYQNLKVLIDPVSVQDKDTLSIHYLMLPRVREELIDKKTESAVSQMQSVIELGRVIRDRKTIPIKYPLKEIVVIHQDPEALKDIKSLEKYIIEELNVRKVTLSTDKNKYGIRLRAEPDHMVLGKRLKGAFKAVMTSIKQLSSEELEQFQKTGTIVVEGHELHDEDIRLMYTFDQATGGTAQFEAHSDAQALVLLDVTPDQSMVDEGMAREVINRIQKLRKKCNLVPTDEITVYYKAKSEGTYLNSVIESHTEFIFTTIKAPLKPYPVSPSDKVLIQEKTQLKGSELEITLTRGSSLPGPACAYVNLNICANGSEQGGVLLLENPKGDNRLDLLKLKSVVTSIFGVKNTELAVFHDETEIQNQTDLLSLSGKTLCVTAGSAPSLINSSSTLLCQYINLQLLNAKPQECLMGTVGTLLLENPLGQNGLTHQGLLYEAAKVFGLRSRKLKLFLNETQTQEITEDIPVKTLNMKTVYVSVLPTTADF
# Sequence of UniProt Q96LB2 (whole entry, looked up): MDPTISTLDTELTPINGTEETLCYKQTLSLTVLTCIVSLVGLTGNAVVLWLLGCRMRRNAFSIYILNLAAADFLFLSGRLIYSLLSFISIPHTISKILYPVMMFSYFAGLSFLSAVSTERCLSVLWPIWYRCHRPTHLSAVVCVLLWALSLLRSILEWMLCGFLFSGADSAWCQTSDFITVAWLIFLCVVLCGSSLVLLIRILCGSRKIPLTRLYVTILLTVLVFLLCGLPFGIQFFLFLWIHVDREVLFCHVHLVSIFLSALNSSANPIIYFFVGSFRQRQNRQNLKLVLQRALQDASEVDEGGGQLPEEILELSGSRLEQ
# Sequence of UniProt P08581 (whole entry, looked up): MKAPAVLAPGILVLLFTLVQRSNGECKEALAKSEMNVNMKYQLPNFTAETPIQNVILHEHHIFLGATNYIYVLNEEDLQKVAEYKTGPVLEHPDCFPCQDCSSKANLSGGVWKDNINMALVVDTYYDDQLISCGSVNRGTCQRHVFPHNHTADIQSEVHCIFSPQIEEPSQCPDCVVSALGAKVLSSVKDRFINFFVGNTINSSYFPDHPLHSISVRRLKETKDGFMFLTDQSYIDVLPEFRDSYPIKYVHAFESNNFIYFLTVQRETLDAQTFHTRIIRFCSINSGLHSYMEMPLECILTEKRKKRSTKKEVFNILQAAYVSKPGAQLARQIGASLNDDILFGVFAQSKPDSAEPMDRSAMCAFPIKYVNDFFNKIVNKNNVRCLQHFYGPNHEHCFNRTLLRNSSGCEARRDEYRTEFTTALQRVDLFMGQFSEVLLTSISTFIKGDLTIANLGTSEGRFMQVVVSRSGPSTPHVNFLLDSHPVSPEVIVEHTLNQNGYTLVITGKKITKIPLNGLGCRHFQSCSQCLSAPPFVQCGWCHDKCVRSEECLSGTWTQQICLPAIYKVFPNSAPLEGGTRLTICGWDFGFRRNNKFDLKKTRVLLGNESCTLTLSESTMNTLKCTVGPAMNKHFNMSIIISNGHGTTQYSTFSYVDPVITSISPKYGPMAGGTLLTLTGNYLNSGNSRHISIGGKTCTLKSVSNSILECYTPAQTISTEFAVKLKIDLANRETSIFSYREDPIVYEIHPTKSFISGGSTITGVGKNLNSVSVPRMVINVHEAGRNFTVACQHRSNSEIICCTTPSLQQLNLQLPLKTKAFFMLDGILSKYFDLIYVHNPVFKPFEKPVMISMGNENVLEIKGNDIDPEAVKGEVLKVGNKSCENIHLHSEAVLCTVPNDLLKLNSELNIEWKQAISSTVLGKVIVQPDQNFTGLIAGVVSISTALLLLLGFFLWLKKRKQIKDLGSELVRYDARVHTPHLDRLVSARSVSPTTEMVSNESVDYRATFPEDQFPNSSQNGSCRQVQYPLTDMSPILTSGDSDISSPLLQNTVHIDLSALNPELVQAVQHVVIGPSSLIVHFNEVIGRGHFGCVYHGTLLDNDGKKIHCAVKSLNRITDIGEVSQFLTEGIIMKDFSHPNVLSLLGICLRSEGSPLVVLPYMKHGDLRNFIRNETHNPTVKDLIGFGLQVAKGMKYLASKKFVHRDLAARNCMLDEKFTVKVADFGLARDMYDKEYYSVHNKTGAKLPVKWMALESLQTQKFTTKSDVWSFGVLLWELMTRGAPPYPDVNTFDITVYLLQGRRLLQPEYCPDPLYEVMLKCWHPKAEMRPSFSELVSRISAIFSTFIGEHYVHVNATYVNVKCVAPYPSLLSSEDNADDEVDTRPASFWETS
# Sequence of UniProt P32247 (whole entry, looked up): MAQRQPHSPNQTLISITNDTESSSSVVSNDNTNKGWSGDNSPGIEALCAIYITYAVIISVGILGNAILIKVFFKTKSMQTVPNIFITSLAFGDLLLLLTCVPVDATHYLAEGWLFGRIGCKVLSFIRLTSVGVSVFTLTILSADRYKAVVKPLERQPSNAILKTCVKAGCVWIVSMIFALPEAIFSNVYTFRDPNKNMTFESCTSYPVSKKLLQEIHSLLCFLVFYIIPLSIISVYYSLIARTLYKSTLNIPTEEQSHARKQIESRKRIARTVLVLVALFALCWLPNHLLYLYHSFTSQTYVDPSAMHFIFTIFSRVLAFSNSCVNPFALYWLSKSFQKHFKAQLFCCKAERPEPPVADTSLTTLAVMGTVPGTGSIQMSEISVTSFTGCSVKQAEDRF
# Sequence of UniProt O43613 (whole entry, looked up): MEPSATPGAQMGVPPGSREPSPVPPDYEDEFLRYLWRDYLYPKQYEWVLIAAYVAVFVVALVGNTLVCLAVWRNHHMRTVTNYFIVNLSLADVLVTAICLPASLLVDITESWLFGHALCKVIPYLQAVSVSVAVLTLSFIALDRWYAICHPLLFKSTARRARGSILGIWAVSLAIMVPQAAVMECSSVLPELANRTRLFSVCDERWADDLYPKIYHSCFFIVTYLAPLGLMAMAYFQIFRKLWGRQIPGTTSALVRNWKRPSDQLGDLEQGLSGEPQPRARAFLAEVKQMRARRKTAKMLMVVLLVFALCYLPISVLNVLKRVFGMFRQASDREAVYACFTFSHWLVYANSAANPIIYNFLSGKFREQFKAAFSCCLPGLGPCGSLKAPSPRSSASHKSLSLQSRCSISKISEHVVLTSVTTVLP
SMILES,target or system,assay,system,setting,scale,quantity,result
CC(C)N(C)N=O,Salmonella typhimurium,"mutagenicity, Ames plate incorporation",TA100,"1500 µg/plate, 3 d, without S9, methanol",,revertant colonies per plate,162 ± 4
OC(CCN1CC=C(c2ccc(F)cc2)CC1)c1ccc(F)c2ccccc12 (stereo not drawn),Salmonella typhimurium,SOS/umu test,TA1535/pSK1002,"0.002 mg/mL, 4 h, with S9, full range",,survival,99.3%
[Cl-].[Cl-].[Pt+2].[Ru+2].c1ccc(-c2nc3cc4ccccc4cc3nc2-c2ccccn2)nc1.c1cnc2c(c1)ccc1cccnc12.c1cnc2c(c1)ccc1cccnc12,Danio rerio,,embryos,"45 µM, 96 h",,hatching rate,40 ± 3.8%
Fc1cccc(COc2ccc(Nc3ccnc4cc(-c5cccc(N6CCOCC6)c5)ccc34)cc2Cl)c1,Trypanosoma cruzi,,"NIH 3T3, 2% FBS medium",96 h,baseline: NIH 3T3 TC50 over T. cruzi EC50,selectivity ratio,4
O=[N+]([O-])c1ccc(NC2CCNCC2)c(C(F)(F)F)c1,Salmonella typhimurium,SOS/umu test,TA1535/pSK1002,"0.063 mg/mL, 4 h, without S9, full range",,survival,89%
COCCN(CCOC)N=O,Salmonella typhimurium,"mutagenicity, Ames plate incorporation",TA98,"150 µg/plate, 3 d, without S9, methanol",,revertant colonies per plate,26.7 ± 4
[Cl-].[Cl-].[Pt+2].[Ru+2].c1ccc(-c2nccnc2-c2ccccn2)nc1.c1cnc2c(c1)ccc1cccnc12.c1cnc2c(c1)ccc1cccnc12,Danio rerio,,embryos,"90 µM, 72 h",,survival rate,36.7 ± 2%
CO[C@H]1C[C@@H]2CC[C@@H](C)[C@@](O)(O2)C(=O)C(=O)N2CCCC[C@H]2C(=O)O[C@H]([C@H](C)C[C@@H]2CC[C@@H](OC(=O)NCCOCCOCCOCCOCCOCCOCCOCCOCCC(=O)N3CCc4cc(Cn5nc(-c6ccc7oc(N)nc7c6)c6c(N)ncnc65)ccc4C3)[C@H](OC)C2)C[C@@H](O)[C@H](C)/C=C(\C)[C@@H](O)[C@@H](OC)C(=O)[C@H](C)C[C@H](C)/C=C/C=C/C=C/1C,,,patients with advanced solid tumours,"intravenous, 12 mg weekly, grade 3 or higher",,diarrhoea incidence,0%
COc1ccc(N2C(=O)N(c3c(C)cccc3Cl)Cc3cnc(Nc4ccc(C5CCN(C)CC5)cc4OC)nc32)nc1,"MET (Homo sapiens, UniProt P08581)",kinase activity,,0.5 µM,,inhibition,5%
CN1CCN(S(=O)(=O)c2ccc(-c3ccc4c(Nc5ccc(OCc6cccc(F)c6)c(Cl)c5)ccnc4c3)cc2)CC1,Trypanosoma cruzi,,"NIH 3T3, 2% FBS medium",96 h,baseline: NIH 3T3 TC50 over T. cruzi EC50,selectivity ratio,20
O=[N+]([O-])c1ccc(N2CCN(CCC(O)c3ccc(F)cc3)CC2)c(C(F)(F)F)c1 (stereo not drawn),Salmonella typhimurium,"genotoxicity, SOS/umu test",TA1535/pSK1002,"0.002 mg/mL, 4 h, with S9, full range",,induction factor,1.1
Oc1ccc2c3c1O[C@H]1[C@@H](O)CC[C@@]4(O)[C@@H](C2)N(CC2CCC2)CC[C@]314,"MRGPRX1 (Homo sapiens, UniProt Q96LB2)","β-arrestin recruitment, TANGO luminescence",,concentration not given,baseline: basal luminescence,log2 fold change,0.472
COc1cc(Nc2ncc(F)c(Nc3ccc4c(n3)NC(=O)C(C)(C)O4)n2)cc(OC)c1OC,"BRS3 (Homo sapiens, UniProt P32247)",,,,,IC50,> 10 µM
NCC(=O)O,Bacillus subtilis,,NCIB3610,,,half-life,20.3 h
C[C@]1(CO)Cc2ncn(-c3ccc(C#N)c(Cl)c3)c2C(=O)O1,,,Japanese subjects,80 mg single dose,,drug-related Acne incidence,0%
COc1cccc(-c2n[nH]c(SCc3ccccn3)n2)c1OC,Salmonella typhimurium,"Ames test, preincubation",TA1535,"1.0 mg/plate, without S9",,revertant colonies per plate,14
CC1(F)CN(C(=O)Cn2c(=O)c(C(=O)NCc3ccc(Cl)cc3)cc3nc(N4CCNC4=O)cnc32)C1,human cytomegalovirus,,"MRC-5, AD169-GFP",,baseline: CC50 over EC50,selectivity ratio,> 184
COc1cc2c(Oc3ccc4[nH]c(C)cc4c3F)ccnc2cc1OCC1(N)CC1,,,paediatric recurrent refractory sarcoma,8 mg/kg,,grade 1 or 2 Leukopenia,13.3%
O=[N+]([O-])c1ccc(N2CCC(NCCC(O)c3ccc(F)c4ccccc34)CC2)c(C(F)(F)F)c1 (stereo not drawn),Salmonella typhimurium,SOS/umu test,TA1535/pSK1002,"0.001 mg/mL, 4 h, without S9 activation",,survival,57%
CC[C@H](C)[C@@H]1NC(=O)[C@@H]2CCCN2C(=O)[C@H](CC(C)C)NC(=O)[C@H](CC(C)C)NC(=O)CNC(=O)[C@@H](NC(=O)[C@@H](NC(=O)[C@H](CC(=O)O)NC(=O)CNC(=O)[C@@H](NC(=O)[C@H](C)NC(=O)CNC(=O)[C@H](CCCCN)NC(=O)[C@H](CC(C)C)NC(=O)[C@H](CC(C)C)NC(=O)[C@H](CCCCN)NC(=O)CNC(=O)[C@@H](NC(=O)[C@@H](N)CC(C)C)C(C)C)C(C)C)C(C)C)CSSC[C@@H](C(=O)O)NC1=O,,"RNA-seq, item: Rps18-ps3 mRNA","mouse traumatic brain injury, frontal cortex and hippocampus",dose not given,baseline: TBI plus compound vs TBI,log2 fold change,-1.73
CN1CCN(c2cc(-c3ccncc3)c(-c3ccc4ccccc4c3)nn2)CC1,"HCRTR1 (Homo sapiens, UniProt O43613)","antagonist, FLIPR",,10 µM,,inhibition,-28.8%
C[C@H](Cn1cnc2c(N)ncnc21)OCP(=O)(O)O,HIV-1,,,no human serum albumin,baseline: CC50 over IC50,therapeutic index,> 49
Cc1cc(C(=O)NC(C)(C)COc2cccc3c2C(N)=NS(=O)(=O)N3)cc(C)n1,Escherichia coli,"Ames test, initial",WP2 uvrA,500 µg/plate,baseline: solvent control,revertant ratio,1.1
C[C@H]1CN(c2n[nH]c3nc(N[C@H]4CC[C@H](NS(=O)(=O)CCC(F)(F)F)CC4)ncc23)CCO1,"Isoleucine--tRNA ligase, cytoplasmic (Homo sapiens, UniProt P41252)","Kinobeads competition, item: IARS",,"0.8 µM, unit not given",baseline: vehicle,remaining binding,1.06
N#C[C@@]1(n2ccc(N)nc2=O)O[C@H](CO)[C@@H](O)[C@H]1O,Salmonella typhimurium,,TA100,"2.5 µM, without S9",baseline: control,viability,99%
Cc1cc(C#N)cc(C)c1Oc1nc(Nc2ccc(C#N)cc2)nc(N)c1Br,HIV-1,,"MT4, IIIB wild type",,baseline: CC50 over EC50,selectivity index,> 1100
[Cl-].[Cl-].[Pt+2].[Ru+2].c1ccc(-c2nc3ccccc3nc2-c2ccccn2)nc1.c1cnc2c(c1)ccc1cccnc12.c1cnc2c(c1)ccc1cccnc12,Danio rerio,,embryos,"30 µM, 12 h",,survival rate,93.3 ± 2.4%
C[C@H]1C[C@@H](N2C(=N)N[C@](C)(c3cccc(NC(=O)c4cccc(C#N)c4)c3Cl)CC2=O)CCO1,"Salmonella typhimurium, Escherichia coli",,"TA98, TA100, TA1535, TA97a, WP2 uvrA pKM101","concentration not given, with and without S9",,mutagenicity,negative
CC(=O)N1CCC(C(=O)N2CCN3C(=O)c4cc(-c5ccccc5)ccc4NC(=O)C3C2)CC1 (stereo not drawn),Salmonella typhimurium,,TA98,"5000 µg/plate, with: rat liver S9",baseline: vehicle,fold increase in revertants,1.1
CCc1ccc(CC/C=C/c2ccc3c(c2)C(=O)CC3)cc1,,,"Sprague-Dawley rat, male, serum","oral, 120 mg/kg/day, 14 days",,potassium,4.91 mM

# Excerpt of the above:
SMILES,target or system,assay,system,setting,scale,quantity,result
NCC(=O)O,Bacillus subtilis,,NCIB3610,,,half-life,20.3 h
O=[N+]([O-])c1ccc(N2CCN(CCC(O)c3ccc(F)cc3)CC2)c(C(F)(F)F)c1 (stereo not drawn),Salmonella typhimurium,"genotoxicity, SOS/umu test",TA1535/pSK1002,"0.002 mg/mL, 4 h, with S9, full range",,induction factor,1.1
Cc1cc(C#N)cc(C)c1Oc1nc(Nc2ccc(C#N)cc2)nc(N)c1Br,HIV-1,,"MT4, IIIB wild type",,baseline: CC50 over EC50,selectivity index,> 1100
CC[C@H](C)[C@@H]1NC(=O)[C@@H]2CCCN2C(=O)[C@H](CC(C)C)NC(=O)[C@H](CC(C)C)NC(=O)CNC(=O)[C@@H](NC(=O)[C@@H](NC(=O)[C@H](CC(=O)O)NC(=O)CNC(=O)[C@@H](NC(=O)[C@H](C)NC(=O)CNC(=O)[C@H](CCCCN)NC(=O)[C@H](CC(C)C)NC(=O)[C@H](CC(C)C)NC(=O)[C@H](CCCCN)NC(=O)CNC(=O)[C@@H](NC(=O)[C@@H](N)CC(C)C)C(C)C)C(C)C)C(C)C)CSSC[C@@H](C(=O)O)NC1=O,,"RNA-seq, item: Rps18-ps3 mRNA","mouse traumatic brain injury, frontal cortex and hippocampus",dose not given,baseline: TBI plus compound vs TBI,log2 fold change,-1.73
COCCN(CCOC)N=O,Salmonella typhimurium,"mutagenicity, Ames plate incorporation",TA98,"150 µg/plate, 3 d, without S9, methanol",,revertant colonies per plate,26.7 ± 4
